Assay results of several laboratories.
Compare with care: the assays were run in different laboratories. Several values in a cell are separate wells, animals, samples, runs or records. ± marks the error that the study gave.

With `OC[C@H]1O[C@@H](c2ccc(F)c(Cc3cc4ccccc4s3)c2)[C@H](O)[C@@H](O)[C@@H]1O` the tissue/plasma ratio was 730 ± 377 (Wistar rat, male, small intestine; oral, dose not given, 1 h; relative to: small intestine over plasma concentration).
The AUC(0-72) of `CC(C)NC[C@@H](C(=O)N1CCN(c2ncnc3c2[C@H](C)C[C@H]3O)CC1)c1ccc(Cl)cc1` is reported as 253 ng·h/mL (human, hepatic impairment Healthy (Child-Pugh), plasma; oral, 100 mg single, geometric mean).
The beta half-life of `NCCCC[C@@H]1NC(=O)[C@@H](Cc2c[nH]c3ccccc23)NC(=O)[C@H](c2ccccc2)NC(=O)[C@@H]2C[C@@H](OC(=O)NCCN)CN2C(=O)[C@H](Cc2ccccc2)NC(=O)[C@H](Cc2ccc(OCc3ccccc3)cc2)NC1=O` is reported as 9.1 ± 5.2 h (radioimmunoassay; healthy human male volunteers, plasma; subcutaneous, 600 µg).
`COc1cc(OC)c(/C=C/S(=O)(=O)Cc2ccc(OC)c(NCC(=O)O)c2)c(OC)c1` has a Vss/F of 788 ± 415 L (cancer patients, phase I, plasma; oral, 140 mg twice daily, day 21 cycle 1).
For `CCN(CC)CCNC(=O)c1c(C)[nH]c(/C=C2\C(=O)Nc3ccc(F)cc32)c1C`, the BNP level was 2300 pg/mL (human, plasma; 37.5 mg daily, 11 months).
With `C[C@@H]1CCN(C(=O)CC#N)C[C@@H]1N(C)c1ncnc2[nH]ccc12` the unbound fraction was 0.364 (ultrafiltration; Sprague-Dawley rats, acute lung injury model, plasma; 5 µg/mL).
With `Cc1[nH]c(=O)c(CNC(=O)c2ccc(F)nc2)c2c1CCCC2` the kinetic solubility was 114 µg/mL (U-HPLC; 20% DMSO in water).
`CNCc1ccc(-c2[nH]c3cc(F)cc4c3c2CCNC4=O)cc1` has a half-life of 13.9 h (human patients, plasma; oral, 40 mg once daily, day 1, single dose, arithmetic mean).
Under “Cmax range over subjects”, `Cn1c(-c2ccc(C(N)=O)cc2F)nnc1C(C)(C)Oc1c(F)cc(Cl)cc1F` is recorded as 155 to 304 ng/mL (young non-Japanese adults, plasma; oral, 20 mg single dose, day 1, high-dose multiple-dose study).
Under “free drug permeability”, `Cc1cccc(C)c1OCC(=O)N[C@@H](Cc1ccccc1)[C@@H](O)C[C@H](Cc1ccccc1)NC(=O)[C@H](C(C)C)N1CCCNC1=O` is recorded as 27.9 ± 2.2 ×10⁻⁶ cm/s (modified PAMPA Franz cell; phosphate buffer with HPMCAS; stock 12 mg/mL, 3 h, 25 °C, 454 nm system, 300 rpm, with: 3% BSA receiver).
For `O=C(O)[C@H](c1ccccc1Cl)N1CCc2sccc2C1`, “deviation from nominal” read 10% (HPLC-MS/MS; feline EDTA plasma; 12 h, -20 °C, storage stability).
For `NC(=O)OCC(COC(N)=O)c1ccccc1`, “hepatocyte necrosis score” read 0 (Sprague-Dawley rat, male, liver; oral, 300 mg/kg, 6 h, single low dose; direction not given).
`C[C@]12CC[C@@H]3c4ccc(O)cc4CC[C@H]3[C@@H]1C[C@@H](O)[C@@H]2O` — result for “mean serum concentration”: 0 ng/mL (GC-MS; breast cancer women on NSAI, serum; vaginal, 0.03 mg, 8 h, day 0).
`COc1ccc(-c2cc(=O)c3c(OC)c(OC)c(OC)cc3o2)cc1OC` — result for “tissue to peel content ratio”: 0.216% (C57BL/6 mouse, male, liver; oral, 1% w/w in diet, 6 weeks, orange peel extract diet; relative to: content in orange peel).
`COCCCC/C(=N\OCCN)c1ccc(C(F)(F)F)cc1`: “subjects with adverse events” 7.1% (healthy male human; oral, 50 mg, dry lip, mild, not drug-related).
`CN1CC(=O)NC1=N` has a dialysis clearance of 47 mL/min (in vitro haemodialysis; buffered aqueous solution; concentration not given, blood 50, dialysate 250 mL/min).
`C#C[C@]1(CO)O[C@@H](n2cnc3c(N)nc(F)nc32)C[C@@H]1O` gave an AUC(0-t) of 3.74 µM·h (human, plasma; oral, 30 mg, single dose, fasted).
Under “minimum trough plasma concentration”, `CCN(CC)CCNC(=O)c1c(C)[nH]c(/C=C2\C(=O)Nc3ccc(F)cc32)c1C` is recorded as 23.1 ng/mL (human, plasma; oral, 20 mg/m2, day 7).
The unbound fraction of `CN1CC[C@@H](NC(=O)Nc2ccc(C#N)cc2)C[C@@H]1c1nc2ccccc2[nH]1` is reported as 0.08 ± 0.006 (equilibrium dialysis; human, moderate hepatic impairment, plasma; 6 h after dose, arithmetic mean).
`CCn1cc(-c2nc(C)no2)c(=O)c2cc(F)c(N3CCC(C)CC3)cc21` has a kinetic solubility of 4.6 µM (FaSSGF; 2 h, pH 1.2, 25 °C).
`CC(C)=CCC[C@](C)(O[C@@H]1O[C@H](CO)[C@@H](O)[C@H](O)[C@H]1O)[C@H]1CC[C@]2(C)[C@@H]1[C@H](O)C[C@@H]1[C@@]3(C)CC[C@H](O)C(C)(C)[C@@H]3[C@@H](O[C@@H]3O[C@H](CO)[C@@H](O)[C@H](O)[C@H]3O[C@@H]3O[C@@H](C)[C@H](O)[C@@H](O)[C@H]3O)C[C@]12C`: “post-preparative stability accuracy” 107 ± 7.8% (rat, extracted tissue homogenate QC samples; 0.01 µg/mL, 24 h, 15 °C, autosampler).
`CC(C)C[C@H](NC(=O)[C@H](CC(C)C)NC(=O)[C@@H](Cc1c[nH]c2ccccc12)NC(=O)[C@@H](NC(=O)[C@@H](Cc1c[nH]c2ccccc12)NC(=O)[C@@H](N)CCCCN)[C@H](c1ccccc1)c1c[nH]c2ccccc12)C(N)=O` has an HPLC retention of 47.5 %B (RP-HPLC Kinetex Biphenyl; acetonitrile/water TFA gradient).
With `CS(=O)(=O)n1cc2c(n1)CN([C@@H]1C[C@H](N)[C@@H](c3cc(F)ccc3F)O[C@@H]1C(F)(F)F)C2` the Ctrough was 14.9 ± 10.7 ng/mL (human, plasma; oral, 25 mg, 1008 h after first dose, multiple dose).
`CC(C)=CCC[C@](C)(O[C@@H]1O[C@H](CO)[C@@H](O)[C@H](O)[C@H]1O)[C@H]1CC[C@]2(C)[C@@H]1[C@H](O)C[C@@H]1[C@@]3(C)CC[C@H](O[C@@H]4O[C@H](CO)[C@@H](O)[C@H](O)[C@H]4O[C@@H]4O[C@H](CO)[C@@H](O)[C@H](O)[C@H]4O)C(C)(C)[C@@H]3CC[C@]12C` has an AUC of 12900 ± 8090 ng·h/mL (Sprague-Dawley rat, plasma; oral, 2000 mg/kg ginseng extract, diet with NUTRIOSE 2.5% for 2 weeks).
For `CC(C)C[C@H](NC(=O)[C@H](CCCNC(=N)N)NC(=O)[C@H](CC(N)=O)NC(=O)[C@H](CC(=O)O)NC(=O)[C@H](CCCNC(=N)N)NC(=O)CNC(=O)CNC(=O)CNC(=S)Nc1ccc(C[C@H]2CN(CC(=O)O)CCN(CC(=O)O)CCN2CC(=O)O)cc1)C(=O)N[C@@H](CC(N)=O)C(=O)N[C@H](C(=O)NCC(=O)NCC(=O)N[C@H](C(=O)N[C@@H](Cc1ccc(O)cc1)C(=O)N[C@@H](Cc1ccccc1)C(=O)N[C@@H](CC(C)C)C(=O)N[C@H](C(=O)N[C@H](C(=O)N[C@@H](CCCNC(=N)N)C(=O)N[C@@H](CCC(N)=O)C(=O)O)[C@@H](C)O)[C@@H](C)O)[C@@H](C)O)C(C)C` [fluorine-18 labelled], “HPLC retention time” read 13.2 min (reverse-phase HPLC).
`O=C(/C=C/c1cccc(S(=O)(=O)Nc2ccccc2)c1)NO`: “volume of distribution steady-state” 25.7 L/m² (human mild liver dysfunction, plasma; intravenous, 400 mg/m^2, 30 min infusion, cycle 1 day -7).
The dose-normalized AUC(0-inf) of `[2H]C([2H])([2H])Oc1cc2c(cc1OC([2H])([2H])[2H])C1CC(=O)C(CC(C)C)CN1CC2` (stereo not drawn) is reported as 22.5 ng·h/mL (measured: deuterated total (α+β)-HTBZ; healthy human volunteers, plasma; oral, 12 mg single dose, standard meal).
`Cc1nc2cccc(OCC(C)(C)C(=O)NC(C)C)c2c(N)c1C(=O)O` has an AUC(0-t) of 86 ng·h/mL (male Sprague-Dawley rat, plasma; oral, 30 mg/kg).
`COc1cc(/C=C/C(=O)CC(=O)/C=C/c2ccc(O)c(OC)c2)ccc1O`: “brain uptake ratio” 6.78 (I-125 label; C57BL/6J mouse, hippocampus; intranasal vs intraperitoneal, 10 µg/mouse IN, 100 µg/mouse IP, 8 h; relative to: intranasal over intraperitoneal).
With `Nc1ccn([C@@H]2O[C@H](CO)[C@@H](O)C2(F)F)c(=O)n1` the measured concentration was 10.9 ± 1.3 ng/mL (extracted rat plasma; 12.00 ng/mL, 8 h, 10 °C, autosampler stability, low QC).
`CCCOc1ccc([C@H]2CNC(=O)N2c2ccc3[nH]cnc3c2)cc1` has a CSF concentration of 54.2 ng/mL (human, elderly, fasted, cerebrospinal fluid; oral, 800 mg twice daily, tablet, 12 h, day 11, minimum, estimated).
The fraction excreted of `O=C1N=C(N2CCOCC2)CN1c1ccc(Cl)cc1` is reported as > 26.7 and 38 (beagle dog, male, urine and cage wash; oral, 20 mg/kg, 0 to 264 h, cumulative radioactivity, with: 14C-label).
For `CCCSc1nc(N[C@@H]2C[C@H]2c2ccc(F)c(F)c2)c2nnn([C@@H]3C[C@H](OCCO)[C@@H](O)[C@H]3O)c2n1`, the AUC was 16.8 µM·h (male Wistar Han rats, plasma; oral, 20 mg/kg/day, week 26, carcinogenicity study).
`CCCC[C@H](NC(C)=O)C(=O)N[C@H]1CCC(=O)NC[C@@H](C(=O)N[C@@H](Cc2c[nH]c3ccccc23)C(N)=O)NC(=O)[C@H](CCCNC(=N)N)NC(=O)[C@@H](Cc2ccccc2)NC(=O)[C@H](Cc2c[nH]cn2)NC1=O` gave a Cmax of 1190 ng/mL (female rat, plasma; subcutaneous, 25 mg/kg/day, multiple doses, once daily).
With `CNC(=O)c1cc(Oc2ccc(NC(=O)Nc3ccc(Cl)c(C(F)(F)F)c3)c(F)c2)ccn1` the AUC(0-24h) was 53700 ng·h/mL (metastatic colorectal cancer patients, plasma; oral, 120 mg once daily, 5 days, with: esomeprazole 40 mg concomitant).
For `CS/C(S)=N/CCCC[S+](C)[O-]` (racemic), the mRNA level was 2.97 (RT-PCR; rat, liver; oral gavage, 200 mg/kg, four days, unit not given; relative to: vehicle).

Some of these lines once more:
`O=C(/C=C/c1cccc(S(=O)(=O)Nc2ccccc2)c1)NO`: “volume of distribution steady-state” 25.7 L/m² (human mild liver dysfunction, plasma; intravenous, 400 mg/m^2, 30 min infusion, cycle 1 day -7).
For `CCN(CC)CCNC(=O)c1c(C)[nH]c(/C=C2\C(=O)Nc3ccc(F)cc32)c1C`, the BNP level was 2300 pg/mL (human, plasma; 37.5 mg daily, 11 months).
The unbound fraction of `CN1CC[C@@H](NC(=O)Nc2ccc(C#N)cc2)C[C@@H]1c1nc2ccccc2[nH]1` is reported as 0.08 ± 0.006 (equilibrium dialysis; human, moderate hepatic impairment, plasma; 6 h after dose, arithmetic mean).
